Assay results from different studies.
Compare with care: the assays were run in different laboratories. Values joined by “and” are separate records of one study, mostly repeats; a detail may differ.
Melanocortin receptor 4: Melanocortin receptor 4 (Mus musculus, UniProt P56450)
UniProt P56450, sequence (whole entry, looked up): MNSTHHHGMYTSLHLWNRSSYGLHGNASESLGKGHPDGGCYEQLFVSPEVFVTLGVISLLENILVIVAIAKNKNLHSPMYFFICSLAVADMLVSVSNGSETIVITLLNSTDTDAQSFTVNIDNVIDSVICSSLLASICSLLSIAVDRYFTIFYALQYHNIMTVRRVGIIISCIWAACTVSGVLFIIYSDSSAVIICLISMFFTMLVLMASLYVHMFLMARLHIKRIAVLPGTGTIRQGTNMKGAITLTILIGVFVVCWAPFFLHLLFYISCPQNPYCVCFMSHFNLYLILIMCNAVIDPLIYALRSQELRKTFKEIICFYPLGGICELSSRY
UniProt Q9NSD7, sequence (whole entry, looked up): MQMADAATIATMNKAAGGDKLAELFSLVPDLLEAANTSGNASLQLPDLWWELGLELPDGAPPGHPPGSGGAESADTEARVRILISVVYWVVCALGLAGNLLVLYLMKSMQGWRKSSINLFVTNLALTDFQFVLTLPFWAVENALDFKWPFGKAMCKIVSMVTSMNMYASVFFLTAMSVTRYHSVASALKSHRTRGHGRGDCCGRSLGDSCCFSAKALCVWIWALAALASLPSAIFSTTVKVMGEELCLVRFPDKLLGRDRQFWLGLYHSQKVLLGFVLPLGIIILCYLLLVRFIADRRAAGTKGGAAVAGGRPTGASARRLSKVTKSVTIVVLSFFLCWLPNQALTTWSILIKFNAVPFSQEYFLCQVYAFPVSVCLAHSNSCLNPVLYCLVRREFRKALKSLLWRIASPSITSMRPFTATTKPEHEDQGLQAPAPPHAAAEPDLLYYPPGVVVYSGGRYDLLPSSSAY
UniProt P33533, sequence (whole entry, looked up): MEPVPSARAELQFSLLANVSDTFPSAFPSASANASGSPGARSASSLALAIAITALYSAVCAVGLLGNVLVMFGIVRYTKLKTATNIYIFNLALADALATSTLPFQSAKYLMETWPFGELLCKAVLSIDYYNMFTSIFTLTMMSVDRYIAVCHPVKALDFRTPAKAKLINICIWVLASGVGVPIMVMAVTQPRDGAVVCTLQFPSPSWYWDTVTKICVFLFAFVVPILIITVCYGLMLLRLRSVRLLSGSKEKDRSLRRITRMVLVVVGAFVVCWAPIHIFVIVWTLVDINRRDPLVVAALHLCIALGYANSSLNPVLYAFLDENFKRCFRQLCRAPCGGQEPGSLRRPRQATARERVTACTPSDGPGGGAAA
UniProt P35462, sequence (whole entry, looked up): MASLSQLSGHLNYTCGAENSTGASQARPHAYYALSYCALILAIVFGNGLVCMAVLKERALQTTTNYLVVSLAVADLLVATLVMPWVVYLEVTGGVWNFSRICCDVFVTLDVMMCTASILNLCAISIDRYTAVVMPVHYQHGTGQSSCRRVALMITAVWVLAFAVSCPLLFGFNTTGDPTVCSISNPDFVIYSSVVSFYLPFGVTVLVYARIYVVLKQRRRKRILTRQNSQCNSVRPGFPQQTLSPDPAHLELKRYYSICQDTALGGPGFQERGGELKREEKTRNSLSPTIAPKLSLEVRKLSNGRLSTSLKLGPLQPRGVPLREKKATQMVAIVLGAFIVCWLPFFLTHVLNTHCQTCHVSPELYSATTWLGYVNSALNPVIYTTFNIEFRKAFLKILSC
UniProt P48546, sequence (whole entry, looked up): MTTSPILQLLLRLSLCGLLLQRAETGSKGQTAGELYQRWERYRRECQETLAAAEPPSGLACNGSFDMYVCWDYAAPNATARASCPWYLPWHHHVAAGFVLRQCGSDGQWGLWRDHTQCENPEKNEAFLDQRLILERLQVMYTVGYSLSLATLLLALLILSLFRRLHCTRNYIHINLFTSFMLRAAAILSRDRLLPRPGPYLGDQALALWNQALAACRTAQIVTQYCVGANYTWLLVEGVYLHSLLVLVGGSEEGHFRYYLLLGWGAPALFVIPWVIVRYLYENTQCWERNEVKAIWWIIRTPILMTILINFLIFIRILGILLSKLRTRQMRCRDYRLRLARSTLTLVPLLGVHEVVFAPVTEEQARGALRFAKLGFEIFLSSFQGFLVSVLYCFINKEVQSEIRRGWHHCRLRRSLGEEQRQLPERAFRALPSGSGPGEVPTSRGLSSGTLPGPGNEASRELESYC
UniProt P00747, sequence (whole entry, looked up): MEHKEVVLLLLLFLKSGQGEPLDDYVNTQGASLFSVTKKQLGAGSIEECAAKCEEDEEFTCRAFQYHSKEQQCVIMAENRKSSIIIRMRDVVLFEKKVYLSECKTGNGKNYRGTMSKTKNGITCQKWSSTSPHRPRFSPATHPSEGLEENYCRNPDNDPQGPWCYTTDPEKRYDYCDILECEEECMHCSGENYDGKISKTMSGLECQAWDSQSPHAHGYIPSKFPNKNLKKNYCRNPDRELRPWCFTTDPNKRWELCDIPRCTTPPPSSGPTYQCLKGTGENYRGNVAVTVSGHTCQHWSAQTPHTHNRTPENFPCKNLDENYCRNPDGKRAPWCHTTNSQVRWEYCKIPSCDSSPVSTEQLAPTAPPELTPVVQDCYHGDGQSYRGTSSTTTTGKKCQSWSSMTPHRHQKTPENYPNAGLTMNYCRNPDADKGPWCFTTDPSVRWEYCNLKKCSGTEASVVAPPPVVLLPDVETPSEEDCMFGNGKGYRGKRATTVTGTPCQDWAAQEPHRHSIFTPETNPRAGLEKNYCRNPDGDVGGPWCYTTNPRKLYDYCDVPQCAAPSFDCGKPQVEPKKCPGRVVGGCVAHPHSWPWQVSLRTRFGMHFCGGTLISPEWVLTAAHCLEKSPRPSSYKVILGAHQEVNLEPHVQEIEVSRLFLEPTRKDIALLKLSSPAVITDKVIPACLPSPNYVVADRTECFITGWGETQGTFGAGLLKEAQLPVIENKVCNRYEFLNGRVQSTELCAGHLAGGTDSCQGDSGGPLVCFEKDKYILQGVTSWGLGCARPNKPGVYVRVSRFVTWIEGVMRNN
UniProt P21554, sequence (whole entry, looked up): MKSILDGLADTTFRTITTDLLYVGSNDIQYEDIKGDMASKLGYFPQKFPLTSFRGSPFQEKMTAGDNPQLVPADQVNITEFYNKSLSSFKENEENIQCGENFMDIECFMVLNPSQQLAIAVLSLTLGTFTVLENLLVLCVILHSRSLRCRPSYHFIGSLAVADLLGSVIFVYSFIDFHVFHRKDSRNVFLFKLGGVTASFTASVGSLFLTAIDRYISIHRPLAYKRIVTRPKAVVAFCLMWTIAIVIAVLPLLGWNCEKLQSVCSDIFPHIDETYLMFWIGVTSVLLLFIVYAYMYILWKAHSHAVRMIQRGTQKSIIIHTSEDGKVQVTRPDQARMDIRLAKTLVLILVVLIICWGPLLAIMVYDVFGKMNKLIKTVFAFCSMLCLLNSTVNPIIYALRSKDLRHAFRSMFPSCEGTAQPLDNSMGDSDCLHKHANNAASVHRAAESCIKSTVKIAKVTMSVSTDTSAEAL
UniProt P43220, sequence (whole entry, looked up): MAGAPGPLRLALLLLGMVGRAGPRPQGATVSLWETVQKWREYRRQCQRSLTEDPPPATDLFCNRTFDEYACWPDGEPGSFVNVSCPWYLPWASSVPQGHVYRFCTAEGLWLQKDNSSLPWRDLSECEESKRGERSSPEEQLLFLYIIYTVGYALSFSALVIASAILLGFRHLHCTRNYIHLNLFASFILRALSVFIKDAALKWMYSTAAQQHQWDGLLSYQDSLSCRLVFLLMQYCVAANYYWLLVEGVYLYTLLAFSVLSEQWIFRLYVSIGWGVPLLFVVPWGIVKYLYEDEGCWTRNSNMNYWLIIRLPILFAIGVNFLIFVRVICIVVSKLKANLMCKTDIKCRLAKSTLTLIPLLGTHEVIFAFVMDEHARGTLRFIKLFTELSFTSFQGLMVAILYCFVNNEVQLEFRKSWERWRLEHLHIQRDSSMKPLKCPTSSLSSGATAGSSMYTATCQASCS

Structure (SMILES) = CC(=O)N[C@@H](CCCNC(=N)N)C(=O)N[C@@H](CCCNC(=N)N)C(=O)N[C@H](C(=O)N1Cc2ccccc2C[C@H]1C(N)=O)[C@@H](c1ccccc1)c1c[nH]c2ccccc12; target = Melanocortin receptor 4; assay = cAMP, agonist, AlphaScreen; EC50 = > 100000 nM
Structure (SMILES) = CC[C@H](C)[C@H](NC(=O)[C@H](CO)NC(=O)[C@H](Cc1ccc(O)cc1)NC(=O)[C@H](CC(=O)O)NC(=O)[C@H](CO)NC(=O)[C@@H](NC(=O)[C@H](Cc1ccccc1)NC(=O)[C@@H](NC(=O)CNC(=O)[C@H](CCC(=O)O)NC(=O)C(C)(C)NC(=O)[C@@H](N)Cc1ccc(O)cc1)[C@@H](C)O)[C@@H](C)CC)C(=O)N[C@@H](C)C(=O)N[C@@H](CCSC)C(=O)N[C@@H](CC(=O)O)C(=O)N[C@@H](CCCCN)C(=O)N[C@H](C(=O)N[C@@H](Cc1c[nH]cn1)C(=O)N[C@@H](CCC(N)=O)C(=O)N[C@@H](CCC(N)=O)C(=O)N[C@@H](CC(=O)O)C(=O)N[C@@H](Cc1ccccc1)C(=O)N[C@H](C(=O)N[C@@H](CC(N)=O)C(=O)N[C@@H](Cc1c[nH]c2ccccc12)C(=O)N[C@@H](CC(C)C)C(=O)N[C@@H](CC(C)C)C(=O)N[C@@H](C)C(=O)N[C@@H](CCC(N)=O)C(=O)N[C@@H](CCCCN)C(=O)NCC(=O)N[C@@H](CCCCN)C(=O)N[C@@H](CCCCN)C(=O)N[C@@H](CC(N)=O)C(=O)N[C@@H](CC(=O)O)C(=O)N[C@@H](Cc1c[nH]c2ccccc12)C(=O)N[C@@H](CCCCN)C(=O)N[C@@H](Cc1c[nH]cn1)C(=O)N[C@@H](CC(N)=O)C(=O)N[C@H](C(=O)N[C@H](C(=O)N[C@@H](CCC(N)=O)C(=O)O)[C@@H](C)O)[C@@H](C)CC)C(C)C)[C@@H](C)CC; target = Gastric inhibitory polypeptide receptor (GIPR, Homo sapiens, UniProt P48546); assay = reporter gene, agonist, luciferase; EC50 = 0.0039 nM
Structure (SMILES) = C[C@@H]1NC(=O)[C@H](CC(N)=O)N2C[C@H](Cc3c[nH]c4ccccc34)NC(=O)[C@H](CSCC2=O)NC(=O)[C@H](CCCNC(=N)N)NC(=O)[C@@H](Cc2ccccc2)NC(=O)[C@H](Cc2c[nH]cn2)NC(=O)[C@@H](NC(=O)[C@@H](N)Cc2ccc(O)cc2)CSSC[C@@H](C(=O)N[C@@H](Cc2ccc(O)cc2)C(N)=O)NC(=O)[C@H](Cc2ccccc2)NC1=O; target = Melanocortin receptor 4; assay = reporter gene, agonist; EC50 = ~5 nM and 4.7 nM
Structure (SMILES) = CC(C)C[C@H](NC(=O)[C@H](CCC(=O)O)NC(=O)[C@H](C)NC(=O)[C@H](CCC(=O)O)NC(=O)[C@H](CCC(=O)O)NC(=O)[C@H](Cc1c[nH]cn1)NC(=O)[C@H](CCCNC(=N)N)NC(=O)[C@H](CCC(=O)O)NC(=O)[C@H](CC(N)=O)NC(=O)[C@H](CCCCN)NC(=O)[C@H](CC(C)C)NC(=O)[C@H](CCCNC(=N)N)NC(=O)[C@H](CCC(N)=O)NC(=O)[C@H](CC(C)C)NC(=O)[C@H](CCC(=O)O)NC(=O)[C@H](C)NC(=O)[C@H](CC(=O)O)NC(=O)[C@H](C)NC(=O)[C@@H](NC(=O)[C@H](CC(C)C)NC(=O)[C@H](CCCCN)NC(=O)[C@H](CCC(=O)O)NC(=O)[C@@H](N)C(C)C)[C@@H](C)O)C(=O)N[C@@H](CCC(=O)O)C(=O)N[C@@H](CCCNC(=N)N)C(=O)N[C@@H](CC(C)C)C(=O)N[C@@H](CCCCN)C(=O)N[C@@H](CO)C(=O)N[C@@H](CCC(=O)O)C(=O)N[C@@H](Cc1ccc(O)cc1)C(=O)O; target = Plasminogen (PLG, Homo sapiens, UniProt P00747); assay = plasminogen activation, chromogenic substrate S-2251; conditions = pH 7.4, with: catalytic streptokinase-plasmin complex, Glu-plasminogen 50 nM; EC50 = 50400 nM
Structure (SMILES) = CC[C@H](C)[C@@H]1NC(=O)[C@H](Cc2ccccc2)NC(=O)[C@H](CCC(=O)O)NC(=O)[C@H](CCCNC(=N)N)NC(=O)[C@](C)(NC(=O)[C@H](CS)NC(=O)[C@H](CC(C)C)NC(=O)[C@H](CCCNC(=N)N)NC(=O)[C@@H](NC(=O)CNC(=O)[C@H](Cc2ccc(O)cc2)NC(=O)[C@@H]2CCCN2C(=O)[C@H](C)NC(=O)[C@H](C)NC(=O)[C@@H](N)CCCNC(=N)N)C(C)C)CCCC=CCCCCCC[C@@](C)(C(=O)N[C@H](C(=O)N[C@@H](Cc2ccccc2)C(=O)N[C@H](C(=O)N[C@@H](CS)C(=O)NCC(=O)NCC(=O)N[C@@H](CO)C(=O)N[C@@H](CCCNC(=N)N)C(=O)N[C@@H](Cc2c[nH]c3ccccc23)C(=O)O)[C@@H](C)O)[C@@H](C)CC)NC(=O)[C@H](C)NC(=O)[C@H](CCCNC(=N)N)NC1=O; target = Relaxin-3 receptor 1 (RXFP3, Homo sapiens, UniProt Q9NSD7); assay = cAMP, agonist; EC50 = 16.7 nM
Structure (SMILES) = CC[C@H](C)[C@H](NC(=O)[C@H](Cc1ccccc1)NC(=O)[C@H](CCC(=O)O)NC(=O)[C@H](CCCCN)NC(=O)[C@H](C)NC(=O)[C@H](C)NC(=O)[C@H](CCC(N)=O)NC(=O)CNC(=O)[C@H](CCC(=O)O)NC(=O)[C@H](CC(C)C)NC(=O)[C@H](Cc1ccc(O)cc1)NC(=O)[C@H](CO)NC(=O)[C@H](CO)NC(=O)[C@@H](NC(=O)[C@H](CC(=O)O)NC(=O)[C@H](CO)NC(=O)[C@@H](NC(=O)[C@H](Cc1ccccc1)NC(=O)[C@@H](NC(=O)CNC(=O)[C@H](CCC(=O)O)NC(=O)C(C)(C)NC(=O)N(N)Cc1c[nH]cn1)[C@@H](C)O)[C@@H](C)O)C(C)C)C(=O)N[C@@H](C)C(=O)N[C@@H](Cc1c[nH]c2ccccc12)C(=O)N[C@@H](CC(C)C)C(=O)N[C@H](C(=O)N[C@@H](CCCNC(=N)N)C(=O)NCC(=O)N[C@@H](CCCNC(=N)N)C(=O)NCC(=O)O)C(C)C; target = Glucagon-like peptide 1 receptor (GLP1R, Homo sapiens, UniProt P43220); assay = reporter gene, agonist, luciferase; EC50 = 0.3 to 0.7 nM
Structure (SMILES) = CC(N)CCc1ccccc1I (racemic); target = D(3) dopamine receptor (DRD3, Homo sapiens, UniProt P35462); assay = GTPγS binding, agonist, radiometric; conditions = cell membranes; EC50 = 1320 nM
Structure (SMILES) = CC(=O)OCCCCCn1c2ccccc2c2cc(C(=O)c3cccc4ccccc34)ccc21; target = Cannabinoid receptor 1 (CNR1, Homo sapiens, UniProt P21554); assay = cAMP, agonist, BRET; EC50 = 195 nM
Structure (SMILES) = Cc1cc(O)cc(C)c1CC(N)C(=O)NC1CCNc2c1cc(Cc1ccccc1)cc2C(C)(C)C (stereo not shown); target = Delta-type opioid receptor (Oprd1, Rattus norvegicus, UniProt P33533); assay = GTPγS binding, agonist, radiometric; conditions = cell membranes; EC50 = 240 nM
Structure (SMILES) = CC(C)[C@H](NC(=O)[C@H](CC(N)=O)NC(=O)[C@H](Cc1ccc(O)cc1)NC(=O)[C@@H](N)CCCCN)C(=O)N[C@H]1CSC(=O)[C@H](Cc2ccccc2)NC(=O)[C@H](Cc2ccc(O)cc2)NC(=O)[C@H](CO)NC(=O)[C@H](C)NC1=O; target = Accessory gene regulator protein C (Staphylococcus epidermidis, UniProt O86861); EC50 = 71.8 nM

Repeated from above:
Structure (SMILES) = C[C@@H]1NC(=O)[C@H](CC(N)=O)N2C[C@H](Cc3c[nH]c4ccccc34)NC(=O)[C@H](CSCC2=O)NC(=O)[C@H](CCCNC(=N)N)NC(=O)[C@@H](Cc2ccccc2)NC(=O)[C@H](Cc2c[nH]cn2)NC(=O)[C@@H](NC(=O)[C@@H](N)Cc2ccc(O)cc2)CSSC[C@@H](C(=O)N[C@@H](Cc2ccc(O)cc2)C(N)=O)NC(=O)[C@H](Cc2ccccc2)NC1=O; target = Melanocortin receptor 4; assay = reporter gene, agonist; EC50 = ~5 nM and 4.7 nM
